Assay results of several laboratories.
A part holds a random share of what one study measured. Positions count from the first letter of the parent shown.

Sample 1
Target: Interferon regulatory factor 5, full length, phosphomimetic (IRF5, Homo sapiens, UniProt Q13568-2, residues 1-514, S451D/S453D/S456D/S462D)
Method: protein-binding microarray
Form: double-stranded DNA, one strand shown
Medium: in vitro
Tested at: 940 nM top
Setting: 60-bp whole probe
Together with: salmon DNA 0.4 mg/ml
Baseline: random background probes
Reading: higher = stronger binding
Endpoint: fitted relative affinity
Constant ends, left off below: GCCTAGCAC … GTCTTGATTCGCTTGACGCTGCTG
TGTGGGCGTAGGCCCGGAGCGTGCTAG: -1.06 z-score
TTAGGCCTGGGGTTTCGGTTAGTGCTA: 5.33 z-score
TCATCTTTCCTCACCATACTGTGCTAG: 1.54 z-score
TGTCCTGTCTACATGGGTGTGTGCTAG: 0.0264 z-score
ATGCTTCTGTATTCATGAAGGTGCTAG: 0.0259 z-score
TATGAAATGGAAGTTTAGGGGTGCTAG: -0.191 z-score
TTAAGCCCACTATCTAGCCCGTGCTAG: -0.248 z-score
TTAGAACTGAGTATCGAATAGTGCTAG: 0.654 z-score
TTAGATCACAGTCTCGATTAGTGCTAG: 2.19 z-score
GGCGAACTGGGGTATCGAGACGTGCTA: 0.861 z-score
GATTGGCTGACTTTGGAGATGTGCTAG: -0.361 z-score
GACGGTTGCGGTCTCGGGACGTGCTAG: 1.68 z-score
TCAGCTCTCTGGACTGTGACTGTGCTA: -0.0219 z-score
ATTACTCCCCAACTCGCCTTGTGCTAG: 0.599 z-score
TCATTTATACCTTAGGTACTGTGCTAG: -0.039 z-score
TTAGGACTGGCTTTCGGTTAGTGCTAG: 2 z-score
TTAGGTATTGACTTTCGGTTAGTGCTA: 3.37 z-score
AATTCTTTGCTCATTTTTCAGGTGCTA: 0.732 z-score
GACGGACTGGGTATCGTGACGTGCTAG: -0.269 z-score
TTAGAACTGAGTTTCGATTAGTGCTAG: 7.34 z-score
GTAGGTTTCGGGTATCGGTTAGTGCTA: 10.6 z-score
GACTAACTGAGTTTCGAGACGTGCTAG: 3.43 z-score
GACGGTTTCCTTTCACTGACGTGCTAG: 2.3 z-score

Sample 2
Target: RNA binding protein fox-1 homolog 2, RRM domain, GST-SBP tag (RBFOX2, Homo sapiens, UniProt O43251-10, residues 100-194)
Method: RNA Bind-n-Seq
Form: RNA
Medium: in vitro
Tested at: 365 nM
Setting: natural RNA segment, single round, ends assumed
Baseline: no-protein control
Reading: higher = stronger binding
Endpoint: RBNS enrichment (R)
Constant ends, left off below: GGGAGUUCUACAGUCCGACGAUC … UGGAAUUCUCGGGUGCCAA
Construct (chain): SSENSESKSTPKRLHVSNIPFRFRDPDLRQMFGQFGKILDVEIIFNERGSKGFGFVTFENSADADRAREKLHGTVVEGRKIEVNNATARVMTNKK
AUUUGAGUCUUCUGGCAACAUUUGGUGACCUACCCCAUAUCCAAUAUUUCCAGCGUUAGAUUGAGGAUGAGGUAGGGAGGUGAUCCAGAGAAGGCGGAGAAGGAAGAAGU: 0.429
CGGGGCGGGUGCUUAGGCUUUCCUGCCCUGGUGGCCACACCAGCUGCUGUAUUUAUGUGCUUCAUAAGGCCCUGCUCUGUCUGCUAAAGCUAUGAAGAAAGAUGUGCAGA: 0.234
CGUCUGUCGAAAGCUGAAGUGCAGAGGGCAGGGAAGCAAACACACCAGAGCUCUUUCUGGUCAGAUUCCCCAGGUGUUUGUCCCCAGCCAAGCCUGGUCCGUAUUGUGAA: 0.356
UCCUCCAGUAUUCCGUCUGUAGCAGGAGCUAGGGCUGCUGCCUCAGCUCCAAGACAAGAAUGAACCUGGCUGUGUCAGUCAUUUUGUCUUUUCCUUUUUUUUUUUUUUUU: 0.535
GGUUGCUGCUGAAGGAGGAGGCAGCAGCGAGGUCCUGCGGUACCCAUGGGGUGAUGCUACUUCUGCAUGCAUCUACAGGGCAUCUGACACCUAACAUGAGACGUGGCAUG: 6.47
GAACUGGAGCUGUGUCGGGGCCAGCACAGCUGAACUGUGACAAUGGCAGGAGGUGGCAUGUGCCCAGCACUUCCAUUAAUCUGAGCCUAGGAGUUGAAUUCUUUGGCAAG: 1.21
GGCCGCUGUAUCCAUGGUGAUGGGGUGAGGUUUUGGCCAAAAGGCCAAAGACUGGUGGUGGGUCCACGGAAUCUGCCCUGUGACAUGAAAGGCUUUGAGGGGCUCUGGCU: 0.607
AUCUUCUUUGACCCUUAUGACUGAAAGAUCAUCAGUUUGGAAGGUACUGGUCCAAUUUAUUUAGGAAGUAUCUCUUGGAGUUUCAGAAAUGCUAGCUUGGACAACUGAAA: 0.949
UAUACAUGGAUAUUCAAUUUUGAUGGCUUCCAGAUUUGUAAGAUUGUAUGUUGUAUAUACCAUUCUAUUAAGAAACAUGUCCACUGUGCUUUCAAACAUAGAUAAAGCAU: 0.299
AGUCUUGCUCUGUUGCCCAGGCUGGAGUGCAGUAGCACGAUCUCGGCUCACUGCACCCUCCGUCUCUCGGGUUCAAGCAAUUGUCUGCCUCAGCCUCCCGAGUAGCUGGG: 0.435
CAACGCUCAUAUUUAUUUCACAAACAGGACCAGCUGAGGGCGGGCGGGGCCAUCGGCUCAGCUCUUGGCUGCCUGGUCAGCCGGUCAGUGUUUUGCGGGGAGAGGUGGCG: 0.319
GAGCCCUAGUAAAGGAACUAUGCAAAUGCAGGCCACUCUCCCCACCACGUCUGUGCCCUGCACUGUCCCCACAGCCUUCCACACCCUGUGCAUAGGCAGCCCUCUCACGU: 0.634

Sample 3
Target: PABPC1L2, full length, GST fusion (mouse, UniProt A0ABA7IW68)
Method: RNAcompete
Form: RNA
Medium: in vitro
Tested at: 20 nM
Setting: 7-mer, probes averaged, single round
Baseline: mean of 7-mers
Reading: higher = stronger binding
Endpoint: 7-mer Z-score
Target sequence (chain): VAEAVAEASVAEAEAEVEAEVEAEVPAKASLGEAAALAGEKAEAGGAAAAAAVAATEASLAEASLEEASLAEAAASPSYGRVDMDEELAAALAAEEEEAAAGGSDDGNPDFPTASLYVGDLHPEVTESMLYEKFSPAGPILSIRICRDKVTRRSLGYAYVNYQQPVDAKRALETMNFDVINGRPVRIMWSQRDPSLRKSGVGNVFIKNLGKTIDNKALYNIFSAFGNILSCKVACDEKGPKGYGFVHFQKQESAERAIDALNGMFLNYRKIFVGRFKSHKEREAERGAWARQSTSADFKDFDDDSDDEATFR
UGAAAAC: 1.84
CGGCUAC: -0.153
CCCAGGG: -0.237
GUACUUA: -0.103
UUUUUCC: -0.269
AAACGUG: 0.611
UAGUCCG: -0.383
ACGCUGC: -0.202
AACAUUC: 0.258
CGGGGUG: -0.012
UUUUUCG: -0.101
GAUCAGG: -0.0518
AGUUAUA: -0.0536
CAACCUC: -0.246
UUUCCCG: -0.519
UACGGCG: -0.0446
CGAUCAU: -0.0899
UGAUGCC: -0.17
CGCCCCG: -0.34
CCGACUC: -0.32
UAAGGCU: 0.00254
AGUGUCA: 0.0841
UGGAAUC: -0.021
ACAGAGA: 0.336
AUAGAGC: 0.0116

Sample 4
Target: ATF3, bZIP domain (human)
Method: DHFR protein complementation
Medium: yeast
Setting: single substitutions, most at no-binding floor
Baseline: wild-type JUN-FOS pair
Reading: higher = stronger binding
Endpoint: binding fitness
Starting sequence: JUN, bZIP domain (human); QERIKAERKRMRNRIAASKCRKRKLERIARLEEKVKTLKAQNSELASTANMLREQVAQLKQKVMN; partner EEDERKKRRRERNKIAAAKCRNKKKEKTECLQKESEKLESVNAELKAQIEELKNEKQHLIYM
A49M: -0.155 natural log
K36D: -0.246 natural log
V56P: -0.966 natural log
S43M: -0.128 natural log
R53G: -0.45 natural log
L45E: -1.42 natural log
K39Q: -0.229 natural log
A40L: -0.183 natural log
K36V: -0.207 natural log
E33C: -0.355 natural log
Q41K: -0.288 natural log
E44A: -0.104 natural log
M51Q: -0.113 natural log
S47G: -0.14 natural log
A49T: -0.494 natural log
L52R: -0.967 natural log
I28P: -0.226 natural log
S47N: -0.112 natural log
K36T: -0.243 natural log
E44P: -1.15 natural log
L38N: -1.42 natural log

Sample 5
Target: Fragile X messenger ribonucleoprotein 1, C-terminal low-complexity region (Fmr1, Mus musculus, UniProt P35922)
Method: RNA Bind-n-Seq
Form: RNA
Medium: in vitro
Tested at: 200 nM
Setting: whole 134-nt RNA, ends assumed
Together with: 150 mM KCl
Baseline: input library
Reading: higher = stronger binding
Endpoint: log2 enrichment
Constant ends, left off below: GGGAGUUCUACAGUCCGACGAUC … UGGAAUUCUCGGGUGUCAAGG
GCAGGAAGUAAAAACGAAUGGAAAUGCUUCGGAUAGUGGCAGGGGUGGGGGUUGCUAAGGAAAGGGUGGGAUGGGAGUGGGUAAAGAGUU: -0.021
UGUGUUGUGCUCAUUACCAGUGCAGCGACUGCCGUCCCAGGGUGACUCUGAGUUGUCCUUUAUCGUGAGCUAGCAAUGGCUAGCGAAGAC: -1.66
CUGUGCUACACAUCGUAUGUACCGAAUCGGGCCCCCCCGGGGCCCCCCCGGGCCCCCCCGGAAAGUAUUAUGUUACGCCGUUCGGAUCUG: -1.04
CACAGACAACACGCACCCACACAGACACAGAGGGAAGGGGUUGGGAUGGGGACAGGGUGCACAGCAGAGCGGGGUAGGACCCCAGCCCCU: 1.22
CAAGUCCUGUGCUACACAUCGUAUGUACCGAAUCGGAAAGGGGAAAGGGGAAAGGAAAGUAUUAUGUUACGCCGUUCGGAUCUGCACUUC: -0.178
CUCAAGUCCUGUGCUACACAUCGUAUGUACCGAAUCGGGUUGGGGUUGGGUUGGAAAGUAUUAUGUUACGCCGUUCGGAUCUGCACUUCC: 0.372
CACAGACAACACGCACCCACACAGACCCAGAGGGAAGGGGUUGGGAUGGGGACAGGGUGCACAGCAGGGCGGGGUAGGACCCCAGCCCCU: 1.31
CAAGUCCUGUGCUACACAUCGUAUGUACCGAAUCGGGAGGGAGGGAAAAAAAGGGAAAGUAUUAUGUUACGCCGUUCGGAUCUGCACUUC: 0.403
UACAGACAACACGCACCCACACAGACACAGAGGGAAGGGGUUGGGAUGGGGACAGGGUGCACAGCAGGGCGGGGUAGGACCCCAGCCCCU: 1.25
UAAUUGUGAUCUACAUUUUAAAAUAUCAAGAGAUCGUCUCAGUGCUUCUUCCCUUACAAUGGAGAGUUUUGCUUUUCUUUGGGCUGGAGG: -0.599
UGGCGCUGGUGGCAUGCGGGGAGGAAGAGGUGGCCUCAUGGAUCGUGGUGGUCCCGGUGGAAUGUUCAGAGGUGGCCGUGGUGGAGACAG: 0.434
UCAAGUCCUGUGCUACACAUCGUAUGUACCGAAUCGGUGGAAAAAGGAAAAAGGAAAGUAUUAUGUUACGCCGUUCGGAUCUGCACUUCC: -0.537
UUAGAUGAGGACCUUGAGAUUGAAUUGGUUGAGGAAGAGCCUCCAUUCCUGAGAGGGCACACUAAGCAAAGCAUGGACAUGAGCCCCAUU: -0.482
CUCAAGUCCUGUGCUACACAUCGUAUGUACCGAAUCGGGCCGGGGCCGGCCGGGAAAGUAUUAUGUUACGCCGUUCGGAUCUGCACUUCC: -0.274

Sample 6
Target: Protein C-ets-1 (ETS1, Homo sapiens, UniProt P14921, residues 1-441, K379A, full length assumed)
Method: protein-binding microarray
Form: double-stranded DNA, one strand shown
Medium: in vitro
Tested at: not given
Setting: k-mer, scored over probes, only values ≥0.25
Reading: higher = stronger binding
Endpoint: E-score
Residues (chain): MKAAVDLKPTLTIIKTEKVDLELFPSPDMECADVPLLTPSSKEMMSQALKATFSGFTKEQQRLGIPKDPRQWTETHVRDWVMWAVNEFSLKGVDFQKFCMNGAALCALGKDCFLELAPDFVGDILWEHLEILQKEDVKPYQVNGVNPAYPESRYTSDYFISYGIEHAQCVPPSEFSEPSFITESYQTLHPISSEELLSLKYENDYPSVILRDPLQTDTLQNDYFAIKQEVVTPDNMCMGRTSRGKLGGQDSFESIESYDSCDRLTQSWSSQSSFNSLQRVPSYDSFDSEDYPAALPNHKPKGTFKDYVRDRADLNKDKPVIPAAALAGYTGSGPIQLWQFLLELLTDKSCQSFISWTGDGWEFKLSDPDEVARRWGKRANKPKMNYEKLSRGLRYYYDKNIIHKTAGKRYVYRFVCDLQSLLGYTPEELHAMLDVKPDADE
ATACCGGG: 0.39
CCGGCGGC: 0.316
ACTACAAT: 0.314
CAGCCGGA: 0.3
ACATCGTA: 0.298
TAGTACTA: 0.258
CTGCCGGC: 0.266
GGGAATAA: 0.278
ACAACACT: 0.252
ATATACCG: 0.341
CCCACCCC: 0.454
GTGTACAA: 0.269
CCGGCGCA: 0.255
CCGACAAC: 0.325
ATTGTACA: 0.267
CCCGCGCG: 0.258
TCCCGGGA: 0.296
CCGGCGGA: 0.392
CACCGACA: 0.42
TATACCGA: 0.262
CGGTAAAA: 0.282
CATAACAA: 0.255
CATATACC: 0.29
CCCGGCAA: 0.303

Some of these lines once more (sample 6):
CCCGCGCG: 0.258
TCCCGGGA: 0.296
CCGGCGGA: 0.392
CACCGACA: 0.42
TATACCGA: 0.262
CGGTAAAA: 0.282
CATAACAA: 0.255
